Measured values gathered from unrelated publications.
Protocols differ between the studies behind these lines. Several values in a cell are separate wells, animals, samples, runs or records. Numbers after ± are the reported error.
VHL/BRD9: VHL/BRD9 (Homo sapiens, UniProt P40337+Q9H8M2)
UniProt P40337, sequence (whole entry, looked up): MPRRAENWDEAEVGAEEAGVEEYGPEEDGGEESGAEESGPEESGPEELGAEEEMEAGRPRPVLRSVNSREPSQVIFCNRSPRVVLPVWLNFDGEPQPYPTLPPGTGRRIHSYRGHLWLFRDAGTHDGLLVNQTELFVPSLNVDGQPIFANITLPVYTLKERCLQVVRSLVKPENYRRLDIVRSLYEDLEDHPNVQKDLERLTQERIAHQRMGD
UniProt Q9H8M2, sequence (whole entry, looked up): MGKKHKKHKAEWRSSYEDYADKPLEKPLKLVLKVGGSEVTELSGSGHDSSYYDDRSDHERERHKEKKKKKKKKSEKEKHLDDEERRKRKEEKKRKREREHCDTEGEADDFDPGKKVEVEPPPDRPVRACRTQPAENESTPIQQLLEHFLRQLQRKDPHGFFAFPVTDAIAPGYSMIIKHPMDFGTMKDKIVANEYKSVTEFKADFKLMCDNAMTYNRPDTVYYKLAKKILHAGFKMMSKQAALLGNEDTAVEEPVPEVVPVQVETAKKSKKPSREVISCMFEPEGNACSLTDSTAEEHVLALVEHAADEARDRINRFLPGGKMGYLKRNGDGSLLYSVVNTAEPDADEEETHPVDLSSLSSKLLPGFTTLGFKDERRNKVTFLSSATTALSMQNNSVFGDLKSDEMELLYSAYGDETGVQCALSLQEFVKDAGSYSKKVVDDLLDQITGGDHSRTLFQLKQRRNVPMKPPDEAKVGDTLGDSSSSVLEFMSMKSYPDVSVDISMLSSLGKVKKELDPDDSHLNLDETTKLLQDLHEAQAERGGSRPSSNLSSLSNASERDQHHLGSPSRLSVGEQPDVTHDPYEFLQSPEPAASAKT
TAGLN: Transgelin (TAGLN, Homo sapiens, UniProt Q01995)
UniProt Q01995, sequence (whole entry, looked up): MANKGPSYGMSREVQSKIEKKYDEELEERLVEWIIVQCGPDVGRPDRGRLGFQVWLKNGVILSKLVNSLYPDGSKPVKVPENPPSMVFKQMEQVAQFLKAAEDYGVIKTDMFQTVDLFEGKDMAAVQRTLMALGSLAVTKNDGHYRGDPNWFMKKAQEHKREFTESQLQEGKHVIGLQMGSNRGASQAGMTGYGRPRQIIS
UniProt P05091, sequence (whole entry, looked up): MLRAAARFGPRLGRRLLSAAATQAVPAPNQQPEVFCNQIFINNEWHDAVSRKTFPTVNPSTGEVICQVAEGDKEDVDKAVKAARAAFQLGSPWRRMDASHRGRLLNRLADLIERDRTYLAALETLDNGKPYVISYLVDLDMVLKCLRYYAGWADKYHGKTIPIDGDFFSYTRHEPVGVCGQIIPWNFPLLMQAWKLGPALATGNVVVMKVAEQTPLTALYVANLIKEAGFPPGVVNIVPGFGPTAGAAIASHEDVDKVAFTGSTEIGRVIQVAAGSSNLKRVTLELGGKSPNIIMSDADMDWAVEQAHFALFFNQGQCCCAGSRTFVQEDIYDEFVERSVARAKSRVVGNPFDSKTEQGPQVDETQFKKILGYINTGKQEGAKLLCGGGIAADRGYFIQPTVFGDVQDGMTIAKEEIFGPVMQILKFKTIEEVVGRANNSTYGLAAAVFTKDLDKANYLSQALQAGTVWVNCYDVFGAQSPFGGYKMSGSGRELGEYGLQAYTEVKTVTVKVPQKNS
UniProt P04631, sequence (whole entry, looked up): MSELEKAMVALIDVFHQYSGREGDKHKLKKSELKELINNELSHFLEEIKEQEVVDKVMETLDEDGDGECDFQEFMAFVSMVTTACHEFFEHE
UniProt Q9NSY1, sequence (whole entry, looked up): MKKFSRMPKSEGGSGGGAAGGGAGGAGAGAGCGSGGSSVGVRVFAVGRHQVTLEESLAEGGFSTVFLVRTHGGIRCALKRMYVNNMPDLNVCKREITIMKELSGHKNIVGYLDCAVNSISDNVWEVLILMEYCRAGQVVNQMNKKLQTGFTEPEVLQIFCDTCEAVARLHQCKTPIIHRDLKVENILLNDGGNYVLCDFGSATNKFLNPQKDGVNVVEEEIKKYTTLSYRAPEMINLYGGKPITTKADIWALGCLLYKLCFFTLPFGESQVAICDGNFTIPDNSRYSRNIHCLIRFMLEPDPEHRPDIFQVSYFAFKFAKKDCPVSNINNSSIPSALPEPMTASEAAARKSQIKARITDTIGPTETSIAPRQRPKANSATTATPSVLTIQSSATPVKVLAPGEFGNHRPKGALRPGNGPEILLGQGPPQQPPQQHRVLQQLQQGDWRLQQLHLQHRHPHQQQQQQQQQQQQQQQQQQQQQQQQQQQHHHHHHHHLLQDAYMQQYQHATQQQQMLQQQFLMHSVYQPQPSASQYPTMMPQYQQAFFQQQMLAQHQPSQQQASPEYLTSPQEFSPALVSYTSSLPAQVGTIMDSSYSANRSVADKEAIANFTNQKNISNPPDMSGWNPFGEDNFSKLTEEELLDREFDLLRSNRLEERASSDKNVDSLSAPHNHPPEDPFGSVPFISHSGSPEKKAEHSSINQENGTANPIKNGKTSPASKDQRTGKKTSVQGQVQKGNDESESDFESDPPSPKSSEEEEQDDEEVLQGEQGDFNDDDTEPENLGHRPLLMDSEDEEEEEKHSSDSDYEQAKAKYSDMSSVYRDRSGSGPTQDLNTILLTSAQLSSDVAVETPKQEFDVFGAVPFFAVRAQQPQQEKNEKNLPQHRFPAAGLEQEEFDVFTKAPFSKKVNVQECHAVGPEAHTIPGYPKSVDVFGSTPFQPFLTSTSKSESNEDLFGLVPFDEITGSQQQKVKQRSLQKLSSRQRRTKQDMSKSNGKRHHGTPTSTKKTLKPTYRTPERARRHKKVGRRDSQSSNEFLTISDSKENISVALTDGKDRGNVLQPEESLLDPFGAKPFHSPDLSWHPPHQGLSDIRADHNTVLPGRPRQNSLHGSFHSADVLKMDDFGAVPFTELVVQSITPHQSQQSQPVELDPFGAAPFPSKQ
UniProt Q9SZU7, sequence (whole entry, unmodified, looked up): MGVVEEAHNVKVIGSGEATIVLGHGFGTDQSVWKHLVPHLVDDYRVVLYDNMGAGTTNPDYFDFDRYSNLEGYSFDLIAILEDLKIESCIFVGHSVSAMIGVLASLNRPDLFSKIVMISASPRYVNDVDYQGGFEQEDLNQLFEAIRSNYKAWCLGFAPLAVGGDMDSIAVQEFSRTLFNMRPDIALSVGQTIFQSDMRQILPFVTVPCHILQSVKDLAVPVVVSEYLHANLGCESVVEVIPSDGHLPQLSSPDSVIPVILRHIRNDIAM
UniProt P08191, sequence (whole entry, looked up): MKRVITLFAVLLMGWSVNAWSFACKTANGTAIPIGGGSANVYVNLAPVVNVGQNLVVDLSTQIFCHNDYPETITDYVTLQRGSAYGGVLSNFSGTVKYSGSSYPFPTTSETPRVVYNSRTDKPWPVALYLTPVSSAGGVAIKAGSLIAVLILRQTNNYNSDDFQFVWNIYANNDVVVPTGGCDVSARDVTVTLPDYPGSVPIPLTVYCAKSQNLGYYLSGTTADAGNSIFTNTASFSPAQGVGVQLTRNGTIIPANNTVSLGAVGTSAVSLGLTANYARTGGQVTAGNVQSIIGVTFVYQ
UniProt P36969, sequence (whole entry, looked up): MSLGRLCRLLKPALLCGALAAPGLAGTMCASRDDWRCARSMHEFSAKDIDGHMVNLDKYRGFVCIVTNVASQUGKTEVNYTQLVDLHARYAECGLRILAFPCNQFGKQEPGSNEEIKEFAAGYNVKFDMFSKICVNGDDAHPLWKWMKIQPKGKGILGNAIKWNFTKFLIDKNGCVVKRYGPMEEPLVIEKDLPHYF
UniProt Q8WXI4, sequence (whole entry, looked up): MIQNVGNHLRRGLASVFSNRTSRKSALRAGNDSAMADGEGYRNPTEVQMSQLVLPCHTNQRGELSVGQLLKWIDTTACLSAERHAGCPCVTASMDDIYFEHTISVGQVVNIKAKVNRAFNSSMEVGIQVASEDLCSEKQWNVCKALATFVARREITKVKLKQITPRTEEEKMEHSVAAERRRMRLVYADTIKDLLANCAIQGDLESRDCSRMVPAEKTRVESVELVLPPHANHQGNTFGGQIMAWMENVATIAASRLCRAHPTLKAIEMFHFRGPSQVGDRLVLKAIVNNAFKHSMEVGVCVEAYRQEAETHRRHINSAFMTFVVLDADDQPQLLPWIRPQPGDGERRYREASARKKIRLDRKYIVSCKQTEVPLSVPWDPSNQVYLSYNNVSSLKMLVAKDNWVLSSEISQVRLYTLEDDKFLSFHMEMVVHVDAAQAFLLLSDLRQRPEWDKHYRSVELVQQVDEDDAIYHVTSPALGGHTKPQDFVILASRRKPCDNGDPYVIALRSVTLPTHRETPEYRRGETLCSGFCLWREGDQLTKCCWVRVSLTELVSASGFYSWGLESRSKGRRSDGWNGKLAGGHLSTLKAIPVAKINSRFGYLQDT
UniProt P31641, sequence (whole entry, unmodified, looked up): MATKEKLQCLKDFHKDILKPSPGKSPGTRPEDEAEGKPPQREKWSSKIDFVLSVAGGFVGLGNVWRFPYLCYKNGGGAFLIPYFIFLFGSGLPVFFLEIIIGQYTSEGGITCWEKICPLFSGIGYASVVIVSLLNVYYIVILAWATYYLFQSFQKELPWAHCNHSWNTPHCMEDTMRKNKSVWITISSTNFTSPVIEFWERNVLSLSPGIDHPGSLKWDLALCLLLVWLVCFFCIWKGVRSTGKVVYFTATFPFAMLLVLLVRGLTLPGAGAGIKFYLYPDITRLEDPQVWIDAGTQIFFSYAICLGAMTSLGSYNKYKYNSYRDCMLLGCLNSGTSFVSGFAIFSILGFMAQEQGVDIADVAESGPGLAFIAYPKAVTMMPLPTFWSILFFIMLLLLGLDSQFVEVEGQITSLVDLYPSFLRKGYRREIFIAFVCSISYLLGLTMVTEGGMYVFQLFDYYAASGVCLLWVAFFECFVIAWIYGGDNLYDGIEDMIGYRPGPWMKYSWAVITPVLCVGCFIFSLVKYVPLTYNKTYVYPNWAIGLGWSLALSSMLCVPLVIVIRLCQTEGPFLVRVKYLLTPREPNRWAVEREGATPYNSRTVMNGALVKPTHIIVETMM

For `CCOC(=O)N1CCN(C(c2cccs2)c2c(CC)[nH]c3ccccc23)CC1` (stereo not drawn), the Kd was 4.12 µM (Acyl-coenzyme A thioesterase 11, START domain (ACOT11, Homo sapiens, UniProt Q8WXI4); binding, microscale thermophoresis).
For `NCCC(=O)O`, the Kd was 41.8 ± 14.8 µM (Sodium- and chloride-dependent taurine transporter (SLC6A6, Homo sapiens, UniProt P31641, F58A)).
With `O=C1C=C(Nc2ccccc2)CN1` the Kd was over 400 µM (Phospholipid hydroperoxide glutathione peroxidase GPX4 (GPX4, Homo sapiens, UniProt P36969); binder, HSQC NMR titration; DLPC/DPC micelles).
With `CCCCCCCO[C@H]1[C@H](OC)O[C@H](CO)[C@@H](O)[C@H](O)[C@@H]1O` the Kd was 2.2 µM (Type 1 fimbrin D-mannose specific adhesin, lectin domain (fimH, Escherichia coli K-12, UniProt P08191); binding, isothermal titration calorimetry; 25 °C, global fit, two runs).
`Cc1cccc2c1N(C(=O)n1ccnn1)CC2` gave a Kd of 442 µM (KAI2 (Arabidopsis thaliana, UniProt Q9SZU7, F194A); ITC; F194A mutant, mean).
`CC(=O)NCC1CCCCN1c1nc(N(C)CCc2ncc(C)s2)nc(N2CC3C(CCOc4cc(-c5scnc5C)ccc4CNC(=O)[C@@H]4C[C@@H](O)CN4C(=O)[C@@H](NC(=O)C4(F)CC4)C(C)(C)C)C3C2)n1` (stereo partly drawn) gave a Kd of 0.442 µM (VHL/BRD9; ternary binding, SPR; added: VCB at 2 µM).
With `O=C(/C=C/c1ccc(O)c(O)c1)OC(Cc1ccc(O)c(O)c1)C(=O)O` (stereo not drawn) the Kd was 14 µM (TAGLN; binding, surface plasmon resonance).
The Kd of `C#CCN1CCN(c2nc(N3CCN(c4ccc(Cc5cc(CNC(=O)[C@@H]6C[C@@H](O)CN6C(=O)[C@@H](NC(=O)C6(F)CC6)C(C)(C)C)c(O)cc5-c5scnc5C)cc4)CC3)nc(N3CCN(C(=O)C4CC4)C3)n2)CC1=O` is reported as 1.8 µM (VHL/BRD9; ternary binding, SPR; added: VCB at 2 µM).
For `Cn1ncc2cc(-c3cncc(Cl)c3N3CCC4(CCNC4=O)CC3)ccc21`, the Kd was 0.002 µM (MED1 (human); SILAC competition displacement; LS174T-L5 cell lysate).
`CC[C@H](C)[C@H](NC(=O)[C@H](CCCCN)NC(=O)[C@@H](NC(=O)[C@H](CCCNC(=N)N)NC(=O)[C@@H](NC(=O)c1ccc2c(c1)C(=O)OC21c2ccc(O)cc2Oc2cc(O)ccc21)[C@@H](C)O)[C@@H](C)O)C(=O)N[C@@H](CC(=O)O)C(=O)N[C@@H](Cc1c[nH]c2ccccc12)C(=O)NC(C)(C)C(=O)N[C@@H](CCCCN)C(=O)N[C@H](C(=O)N[C@@H](CC(C)C)C(=O)NC(C)(C)C(N)=O)[C@@H](C)CC` has a Kd of 0.3 ± 0.05 µM (Protein S100-B (Rattus norvegicus, UniProt P04631); fluorescence anisotropy; pH 7.4, Ca2+ present, added: 50-100 nM fluorescein-labelled peptide).
`O=C(/C=C/c1ccc(O)c(O)c1/C=C/c1ccc(O)c(O)c1)OC(Cc1ccc(O)cc1)C(=O)O` (stereo not drawn) gave a Kd of 48.9 µM (TAGLN; binding, surface plasmon resonance).
`C=CC(=O)N1C[C@H](C)N(c2nc(OC[C@@]34CCCN3C[C@H](F)C4)nc3c(F)c(-c4ccc(F)c5sc(N)c(C#N)c45)c(C(F)(F)F)cc23)C[C@H]1C` gave a Kd of 41.9 µM and 43.1 µM (GTPase KRas, GppNHp-bound (KRAS, Homo sapiens, UniProt P01116, G12V)).
With `CCOC(=O)C(Cc1ccccc1)OC(=O)CCc1ccc(OC)c(OC)c1CCc1ccc(OC)c(OC)c1` (stereo not drawn) the Kd was 41.4 µM (TAGLN; binding, surface plasmon resonance).
`Cc1c[nH]c2nccc(-c3ccc(C(=O)N[C@@H]4c5c(F)cc(C(F)F)cc5C[C@@H]4O)cn3)c12` has a Kd of 0.37 µM (BMP-2-inducible protein kinase (BMP2K, Homo sapiens, UniProt Q9NSY1); binding, competition with immobilised ligand).
`CC(/C=C/C(=O)NO)=C\[C@@H](C)C(=O)c1ccc(N(C)C)cc1` has a Kd of over 30.2 µM (Aldehyde dehydrogenase, mitochondrial (ALDH2, Homo sapiens, UniProt P05091); inhibitor, competition pulldown; SW620 and MV4-11 lysate; 1 h).

A few entries again:
With `CCCCCCCO[C@H]1[C@H](OC)O[C@H](CO)[C@@H](O)[C@H](O)[C@@H]1O` the Kd was 2.2 µM (Type 1 fimbrin D-mannose specific adhesin, lectin domain (fimH, Escherichia coli K-12, UniProt P08191); binding, isothermal titration calorimetry; 25 °C, global fit, two runs).
